Published values of several laboratories.
A part holds a random share of what one study measured.

Sample 1 — technique: Spec-seq; molecule type: double-stranded DNA, one strand shown; sample: in vitro; concentration: not given; setting: whole probe, mean of replicates; reference: not given; direction: lower = stronger binding; constant ends, left off below: GAGTCGTCTCGTCAGCAC … CCGTAGAGCACTCAGGTC
Target: POU, POU domain (Salpingoeca helianthica)
Target sequence (chain): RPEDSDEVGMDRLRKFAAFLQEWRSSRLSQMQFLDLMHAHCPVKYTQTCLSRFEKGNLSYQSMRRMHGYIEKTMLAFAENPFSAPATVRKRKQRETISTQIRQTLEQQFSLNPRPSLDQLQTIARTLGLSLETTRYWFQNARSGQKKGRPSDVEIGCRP
Oligonucleotide | relative binding energy [ln ratio]
ATGCAAAA | 0.892
CCACTAAT | 0.65
ATATAGAT | 1.08
ATGCCAAC | 1.45
ATCGGAAT | 1.16
ATGCCGCA | 1.25
TACGTAAT | 0.532
ATGCGATT | 1.18
ATGAAAAT | 0.937
ATGCCCTC | 1.25
ATGCCGTG | 1.29
ATGCTCGT | 1.15
ATGCATAT | 0.878
CCCGTAAT | 0.668

Sample 2 — technique: RNA Bind-n-Seq; molecule type: RNA; sample: in vitro; concentration: 200 nM; setting: whole 134-nt RNA, ends assumed; with: 150 mM LiCl; reference: input library; direction: higher = stronger binding; library: 7-deaza-guanosine replaces G
Target: Ras GTPase-activating protein-binding protein 1, full length (G3BP1, Homo sapiens, UniProt Q13283)
Sequence of UniProt Q13283 (whole entry, looked up): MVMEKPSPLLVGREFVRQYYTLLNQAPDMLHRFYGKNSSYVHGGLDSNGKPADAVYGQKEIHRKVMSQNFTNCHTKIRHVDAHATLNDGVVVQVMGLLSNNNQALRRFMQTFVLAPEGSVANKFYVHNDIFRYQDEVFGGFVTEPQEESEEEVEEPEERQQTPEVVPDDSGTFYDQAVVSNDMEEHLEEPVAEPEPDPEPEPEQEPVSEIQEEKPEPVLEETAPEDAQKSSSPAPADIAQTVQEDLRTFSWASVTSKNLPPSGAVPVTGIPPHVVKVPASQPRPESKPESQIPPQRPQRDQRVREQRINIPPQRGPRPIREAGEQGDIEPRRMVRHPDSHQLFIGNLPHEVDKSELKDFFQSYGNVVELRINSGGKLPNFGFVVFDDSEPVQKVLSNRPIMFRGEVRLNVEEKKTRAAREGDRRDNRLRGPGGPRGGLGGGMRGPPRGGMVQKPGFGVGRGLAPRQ
Oligonucleotide | log2 enrichment
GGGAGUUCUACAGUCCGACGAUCGUCCUGUGCUACACAUCGUAUGUACCGAAUCGGCCCCCGGGCCCCCGGGGCCCCCGGGAAAGUAUUAUGUUACGCCGUUCGGAUCUGCACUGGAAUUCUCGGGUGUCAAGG | -1.85
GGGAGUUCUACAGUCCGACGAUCCACAGACAACACGCACCCACACAGACACAGAGGGAAGGGGUUGGGAUGGGGACAGGGUGCACAGCAGGGCGGGGUAGGACCCCCGCCCCUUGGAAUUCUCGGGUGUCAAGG | -1.4
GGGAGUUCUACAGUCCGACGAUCAGUCCUGUGCUACACAUCGUAUGUACCGAAUCGGGGUUUUGGGGUUUUGGGUUUUGGGAAAGUAUUAUGUUACGCCGUUCGGAUCUGCACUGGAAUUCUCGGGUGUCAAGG | 0.11
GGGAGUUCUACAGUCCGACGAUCACCAUGCAGGUGGGCAUCUUUGGGAAGUGGGGCAAGGGAAAGAUAGGGAGGGGGGUAACACUUUGGGAACAGGUGGUCCCAGGUCGUUUCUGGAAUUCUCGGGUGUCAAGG | 0.399
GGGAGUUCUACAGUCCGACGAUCAAGUCCUGUGCUACACAUCGUAUGUACCGAAUCGGGGCCCGGGCCCGGGCCCGGGGAAAGUAUUAUGUUACGCCGUUCGGAUCUGCACUUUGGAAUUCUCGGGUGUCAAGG | -0.612
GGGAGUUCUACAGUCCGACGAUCAGUCCUGUGCUACACAUCGUAUGUACCGAAUCGGGUUUUUGGUUUUUGGUUUUUGGGAAAGUAUUAUGUUACGCCGUUCGGAUCUGCACUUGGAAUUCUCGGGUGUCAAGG | -1.15
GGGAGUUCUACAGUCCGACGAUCAGUCCUGUGCUACACAUCGUAUGUACCGAAUCGGGGUUUGGGGUGGGGUUUUUGGGGAAAGUAUUAUGUUACGCCGUUCGGAUCUGCACUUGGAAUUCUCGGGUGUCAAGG | -0.00573
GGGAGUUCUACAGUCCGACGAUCGUCCUGUGCUACACAUCGUAUGUACCGAAUCGGGGAAAAAGGGAAAAAGGGGAAAAAGGAAAGUAUUAUGUUACGCCGUUCGGAUCUGCAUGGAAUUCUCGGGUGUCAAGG | -0.0403

Sample 3 — technique: RNA Bind-n-Seq; molecule type: RNA; sample: in vitro; concentration: 365 nM; reference: no-protein control; direction: higher = stronger binding
Target: RNA binding protein fox-1 homolog 2, RRM domain, GST-SBP tag (RBFOX2, Homo sapiens, UniProt O43251-10, residues 100-194)
Setting: natural RNA segment, single round, ends assumed
Residues (chain): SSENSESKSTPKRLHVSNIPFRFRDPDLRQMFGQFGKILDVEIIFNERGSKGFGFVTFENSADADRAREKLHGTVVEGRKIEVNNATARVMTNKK
Oligonucleotide | RBNS enrichment (R)
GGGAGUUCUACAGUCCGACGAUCGCUACCUUUCAUGUCAAAAUGUUGAUCUGUUAUAAAUAAAUGUUUUGCAUACUUGUUUUUGCUGUGUAUUUUGUUUUCACUUUGAAUCACUUUAUCCGUACAAAAAUAAAUGGAAUUCUCGGGUGCCAA | 0.617
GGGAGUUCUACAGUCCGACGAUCGUGGCAGGGCAGAAACUGGGCAGCCCUGACUUGAUAGCAGCAGGGGGAGCUCCCAAGCUGCCAAGCCCCUGCCUCCAGCCUUCCUGAGUUUCUCUCUCCUGAACCCUACUUGGAAUUCUCGGGUGCCAA | 0.967
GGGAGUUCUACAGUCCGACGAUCAGUGAUCCCAGGUUUCCUCCUGGCCCGUCCCAUGGUCCCUCCACAGGAGUGUGAGAGGAUGGGGGAAGCACUGUGGGAAGACCACCAAAGAUGGCUGGACAGUGGGAGAGUGGAAUUCUCGGGUGCCAA | 0.312
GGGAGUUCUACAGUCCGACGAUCGUUCACAAAGAGCAUUAAGAAAGCUGCGGUGGUCUGAGCAACAUAGCCCAAAGGGCUGAGCCUCCUGGCCUGCCUGCCCGCCCACCCUGGGAGUCCCAGUGGUGAGGCUCUGGAAUUCUCGGGUGCCAA | 0.766
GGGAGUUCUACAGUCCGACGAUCGCCAGACAAGCCGAGAGCCCCUUCUGUUGUGGGCAGCCUGGGUUUGCAGGCCUGCACAGGCUGGGGAGUCCUCAGGACCUUAGGACCUUCAUCCAGGGGCUGGGCUUCGGUGGAAUUCUCGGGUGCCAA | 0.826
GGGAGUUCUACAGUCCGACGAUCAGAUUUGCCUUAUUUUCAGGUUGUUUUAUUUAACGAUGGUUCCUUGGACAGCAUUCUGGUGUUCAGCAACCAAUAUGGAAUAUUUGUCAUUAAAUCCAUAUCAGUCUUUUUGGAAUUCUCGGGUGCCAA | 0.37
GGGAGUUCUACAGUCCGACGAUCACUGUCUGGAAGACAUGUCCCCAUGGCUGUGGGGCCGCUGCUUCUGUUUAAAUAAAAGUGGCCUGGAGCUGGCGUUUGUCGUUUCUUGCUUGGGGGACCAAAAUGUGGAGUGGAAUUCUCGGGUGCCAA | 0.591
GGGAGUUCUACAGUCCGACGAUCGGCAGCCUCUUCAACCAUUAUUGGUCUAACCUGGCUUGUCAGGAAACCAAGCCCACCCUUCCACAUUGGGCCUGGCUGCUCUAUUCUGUACCAAGUACUGGAGAAAAAGCUGGAAUUCUCGGGUGCCAA | 0.331
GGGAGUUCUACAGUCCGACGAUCCCUUCUGGGGGAGCCCUAAGAGGUGGGGAGCAGAGGACUUUUGCUCAGACACCCUUUGCCUGGAAGCCCACUUGUGUUGCUGCUGUGUUGUGUAUAUAGUAUUCUCGAGAUGGAAUUCUCGGGUGCCAA | 0.542

Sample 4 — technique: RNA Bind-n-Seq; molecule type: RNA; sample: in vitro; concentration: not given; reference: input RNA pool; direction: higher = stronger binding
Target: RING finger protein unkempt homolog, zinc fingers 1-6, GST-SBP tag (UNK, Homo sapiens, UniProt Q9C0B0, residues 30-357)
Setting: RNA with constant flanks, human and mouse sites, ends assumed
Construct (chain): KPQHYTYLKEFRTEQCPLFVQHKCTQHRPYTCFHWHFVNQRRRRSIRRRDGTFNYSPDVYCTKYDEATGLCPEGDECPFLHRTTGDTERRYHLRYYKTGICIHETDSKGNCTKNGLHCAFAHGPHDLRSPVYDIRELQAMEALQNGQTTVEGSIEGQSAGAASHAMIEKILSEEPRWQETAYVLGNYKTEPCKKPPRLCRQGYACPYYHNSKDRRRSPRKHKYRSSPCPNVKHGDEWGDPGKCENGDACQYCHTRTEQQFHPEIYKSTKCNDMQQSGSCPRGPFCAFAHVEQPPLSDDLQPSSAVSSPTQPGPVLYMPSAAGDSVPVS
Oligonucleotide | bound/input enrichment [ratio]
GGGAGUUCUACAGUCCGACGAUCAUUUUCACAAGAAUGUUUGCAGAUCCUCAUGGCAAGGUGUUCAGCAUGUUCUUGGAGACUCUAGUAGAUUUCAUACAAGUCCACAAAGAUGAUCUUCAAGAUUGGUUGUUUGUUCUGCUGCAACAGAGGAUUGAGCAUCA | 0.171
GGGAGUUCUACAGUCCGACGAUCCAAAUUUUUCACUCAAAGGAGAGUAUAGUUGCAACCACUAAAUCCAAAAAGGACACGUUUGUUUUAGAAAGCGUUGAUUCUGCUGAUGAACAAUUUCAAAAUACUAAUGCUGAGACUCUCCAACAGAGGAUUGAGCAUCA | 0.421
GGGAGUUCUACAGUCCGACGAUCCGCAACGUGGCUGUGGAGCGUAAGAACCUGAUCACCGUGUGCAGGUUCUCUGUGAAAACGCUGCUGGAGAAGUACACAGCGGAGCCCAUCGAUGACUCAUCGGAGGAGUUUGUCAAUUUUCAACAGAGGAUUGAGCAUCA | 0.0788
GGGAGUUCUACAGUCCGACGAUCCGAAUGAGAAACCAAUCCCUUGGACAGUCUGCACCUUCCCUUACGGCUGGCUUGAAGGAAUUGAGCCUUCCAAGGAGAGGCAGCUUUUGUCGGACAAGUAACCGCAAGAGCUUGAUUGUACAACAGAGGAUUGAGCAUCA | 0.092
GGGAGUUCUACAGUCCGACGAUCUUUGGUCUGGGCAGUGAAUCUCCCUAUAAGCAGCCUUCUGAUGGAAUGGAGAGACCAUCUUCCCUGAUGGACUCUUCACAGGAAAAGUUCUACCCAGAUACUUCUUUCCAAGAAGAUGAGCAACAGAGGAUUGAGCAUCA | 0.104
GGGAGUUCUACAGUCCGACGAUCGUCAGCUCACAAAAUCUAGUGGCAAUACCAGUGUAUGUGAAACAUAGUAUCAGCUUUAAGGAGAACAGUUCUUGCGGCAGAUUUGAUAUAACAAUUGGACCAAAGCAGAAUAUGGGGAAACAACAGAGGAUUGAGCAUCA | 0.805
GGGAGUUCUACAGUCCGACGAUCAUUUGGUCAAGGCCUGAAAGCACCCAGGUGCAGAAUAUCUUGCGCCAGAGAACAGAAAACAUAGAUAUAAAAAAAUACUGUGUACAUUAUCUUGAGGAUGUAGGUUCUUUUGAAUACACUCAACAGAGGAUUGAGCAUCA | 0.513
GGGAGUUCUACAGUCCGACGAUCAAGCUUGGUGGGACAAUUGAUGACUGUGAGUUGGUGGAAGGGCUGGUUCUCACCCAAAAAGUGUCAAAUUCUGGCAUAACCAGAGUUGAAAAGGCCAAGAUUGGGCUUAUUCAGUUUUGCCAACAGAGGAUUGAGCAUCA | 0.0949
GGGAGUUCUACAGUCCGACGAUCGUGGCCUUUCAGUUCACGGUCACUCCGGACGGGAUUGACCUGCGGCUGAGCCAUGAAGCUCUUAGACAAAUCUAUCUCUCUGGACUUCAUUCCUGGAAAAAGAAGUUCAUCAGAUUCAAGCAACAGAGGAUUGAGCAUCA | 0.25
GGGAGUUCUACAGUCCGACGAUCCUGAGGGACUGGACACCCCCCAGGCUCCCUGUCACAUUAGAGGCGCUGAGUGAAGAUGGUCAAAUAUGUGUGUAUUUUUUCAAAAACCUUUUAAGAAAAUACCACGUUCCCUUGUCAUGGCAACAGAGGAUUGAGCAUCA | 0.354
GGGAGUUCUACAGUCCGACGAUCUGAAACAAACAAGAGGUGGACUCAAGUGUGAGAACAUGUUCUUAGGUUCCACAUAUCAUAUCGCUCUCUGGAAUCAGGACAGAAAAAAGUCAUGACAUCUUGAGUUCCUUAAAUAUAGCGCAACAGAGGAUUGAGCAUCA | 0.34
